Results pooled from the literature.
Protocols differ between the studies behind these lines. Numbers after ± are the reported error.

SMILES	cell line	test	setting	IC50 [µM]
Cn1ncc(-c2ccc3c(=O)[nH]nc(CN)c3c2)c1-c1c(F)c(Cl)cc(OC2CC2)c1C#N	RT-4	cell viability, inhibitor, CellTiter-Glo	120 h, baseline-subtracted	3.18
CSCC[C@H](NC(=O)[C@H](CO)NC(C)=O)C(=O)N[C@@H](CCCNC(=N)N)C(=O)N[C@@H](Cc1c[nH]c2ccccc12)C(=O)N[C@@H](CO)C(=O)N[C@@H](CCCNC(=N)N)C(=O)N[C@@H](CCCCN)C(=O)N[C@@H](CCSC)C(=O)N1CCC[C@H]1C(=O)N[C@@H](CS)C(=O)N[C@H](C(=O)N[C@@H](CO)C(=O)O)C(C)C	SUP-T1	Erk phosphorylation, inhibitor, phospho flow cytometry	added: CXCL12 100 ng/mL	> 100
Cc1nc(N(C)c2ccc3c(c2)/C(=C/c2ccccc2C)C(=O)N3C)c2ccccc2n1	BEAS-2B	cell growth or viability, MTT		11.4
CC(C)c1ccc(N(C)c2ccc3c(c2)OCC[C@H]3CNc2cnccc2C(=O)O)cc1	RT112/84	cell growth or viability, ATP luminescence	7 days	0.00443
Cc1cnc(Nc2ccc3c(c2)CCN(C(=O)/C=C/C(=O)C2CCC(C)CC2)C3)nc1-c1cnn(C(C)C)c1 (stereo not shown)	MDA-MB-157	cell growth or viability, MTT	48 h	1.34
C=CCOCO[C@H](C(=O)NC[C@@H]1C[C@@H](OC)C(C)(C)[C@@H](C[C@@H](COC)OC)O1)[C@@]1(OC)CC(=C)[C@@H](C)[C@@H](C)O1	B16	cell viability, sulforhodamine B	72 h, 37 °C, added: 100 µM H2O2	3.14 ± 0.11
CCCCC(=O)Nc1ccc(-c2ccc3ncn(CCC)c(=O)c3c2)cn1	HCC827, PI5P4Kγ shRNA knockdown	cell viability, CCK-8	72 h	0.118 ± 0.07
C=CC(=O)N1CCCC(n2c(=O)c3ncccc3n(Cc3ccc(Oc4ccccc4)cc3)c2=O)C1 (stereo not shown)	Karpas-1106P	cell growth or viability, MTT	72 h	7.5
O=C1Nc2ccccc2/C1=N/c1ccc(Cl)cc1Br	B16	cell growth or viability, MTT	48 h	8.52
CCOc1cncc(-c2ccc(NC(=O)C3(c4ccnc(NS(=O)(=O)C5CC5)n4)CCOCC3)nc2)n1	KCL-22	cell proliferation, CellTiter-Glo	72 h	0.054
C=CC(=O)N1CC2C(=O)N(CCN(C)C)c3c(c4cc(Cl)c(-c5c(O)cccc5F)nc4n(-c4c(C)ccnc4C(C)C)c3=O)N2CC1C (stereo not shown)	NCI-H23 (KRAS G12C)	cell proliferation, inhibitor		0.00809 ± 0.00159
CN1C(=O)/C(=N\c2ccc(Cl)cc2Br)c2ccccc21	B16	cell growth or viability, MTT	48 h	9.27
COc1ccc(O)c(C(=O)c2cnn(-c3oc(C)nc3C#N)c2)c1	CHO	cytotoxicity, MTT		> 50
Cc1nc(Nc2ccc3c(c2)/C(=C/c2c[nH]c4ccccc24)C(=O)N3)c2ccccc2n1	BEAS-2B	cell growth or viability, MTT		18.3
CN1CCC(N[C@@H]2CCc3[nH]c4c(C(N)=O)ccc(-c5ccccc5Cl)c4c3C2)CC1	MX1	cell growth or viability		0.0129
CC(=O)[O][Pd][c]1ccccc1N1N=C(C)C(C)(C)C1=O.CC(=O)[O][Pd][c]1ccccc1N1N=C(C)C(C)(C)C1=O	BEAS-2B	cell growth or viability, MTT	24 h	> 100
CC(C)=CCc1c(OCC2OC2(C)C)ccc2ccc(=O)oc12 (stereo not shown)	COLO 320 multidrug-resistant	cytotoxicity, MTT	24 h, 10% fetal bovine serum	> 100

SMILES	cell line	test	setting	IC50 [µM]
Cc1nc(Nc2ccc3c(c2)/C(=C/c2cn(C)c4ccccc24)C(=O)N3C)c2ccccc2n1	B16	cell growth or viability, MTT		3.07
O=C(Nc1ccc(F)cc1)NC1CCN(c2ncnc3nc[nH]c23)C1 (stereo not shown)	CHO	cytotoxicity, MTT		> 50
CCOC(=O)c1cc(C)n(CO)n1	BEAS-2B	cell growth or viability, MTT	24 h	> 800
NC(=O)c1ccc(-c2ccccc2Cl)c2c3c([nH]c12)CC[C@H](N)C3	SU-DHL-4	cell growth or viability		0.0232
O=C1Nc2ccccc2C12NC(c1ccc(F)cc1)C1(C(=O)Nc3ccccc31)N2Cc1ccc(F)cc1 (stereo not shown)	B16	cell growth or viability, MTT	48 h	22.9
Nc1nc2cnc(C(=O)N3CCOC[C@@H]3c3ccc(C(F)(F)F)cc3)cc2c2c1COC2	U-87 MG			0.357
O=C(NCC1(c2nc(-c3ccccc3)cs2)CCOCC1)c1cccc(-c2noc(C(F)(F)F)n2)c1	SU-DHL-4	cell growth or viability, CCK-8	7 days	3.83
O=C1/C(=N\c2cccc(Cl)c2)c2ccccc2N1Cc1ccccc1	B16	cell growth or viability, MTT	48 h	0.57
Cc1ccccc1Nc1c(-c2ccco2)nc2c(Br)cccn12	UMRC2			19.1
O=C1/C(=N\c2ccc(Cl)cc2Br)c2ccccc2N1Cc1ccccc1 (mixture of isomers)	B16	cell growth or viability, MTT	48 h	9.83
Cc1cc(C)cc(NC(=O)N(Cc2ccc(C(=O)NO)cc2)OCc2ccccc2)c1	HAL-01 B-ALL	cell viability, CellTiter-Glo	72 h	2.82 ± 0.094
COc1ccccc1/C=C1\C(=O)Nc2ccc(Nc3nc(C)nc4ccccc34)cc21	B16	cell growth or viability, MTT		0.39
[BH3-][P@+]1(c2ccccc2)CC[C@@H](O)CC1	SW-620	cell growth or viability, MTT	72 h	> 100
Cc1nc(N(C)c2ccc3c(c2)/C(=C/c2cn(C)c4ccccc24)C(=O)N3C)c2ccccc2n1	BEAS-2B	cell growth or viability, MTT		9.12
C[n+]1c(/C=C/c2ccc(N(c3ccccc3)c3ccccc3)cc2)cc(/C=C2\Sc3ccccc3N2CCCN2CCCC2)c2ccccc21	U-87 MG	cell growth or viability, MTT	36 h	6.59
CNS(=O)(=O)Nc1nccc(Cc2c(C)c3ccc(Oc4ncccc4F)cc3oc2=O)c1F	SU-DHL-8	cell viability	7 days	> 1
CC(=O)[O][Pt]([NH2])([NH2])([Cl])([Cl])[O]C(=O)C(C)c1ccc(CC(C)C)cc1 (stereo not shown)	PSN1	cell growth or viability, MTT	72 h	0.99

Some of these lines once more:
SMILES	cell line	test	setting	IC50 [µM]
O=C1Nc2ccccc2/C1=N/c1ccc(Cl)cc1Br	B16	cell growth or viability, MTT	48 h	8.52
Cc1ccccc1Nc1c(-c2ccco2)nc2c(Br)cccn12	UMRC2			19.1
COc1ccc(O)c(C(=O)c2cnn(-c3oc(C)nc3C#N)c2)c1	CHO	cytotoxicity, MTT		> 50
